Measured values of several laboratories.
Each line is one published result; not all experiments were run side by side.
Sample: plasma

SMILES | species | route | dose | setting | Cmax
COc1cc(OC)c2c(=O)cc(-c3cc(C)c(OCCCN4CCN(C)CC4)c(C)c3)oc2c1 | male Sprague-Dawley rat | oral | 20 mg/kg | single dose | 796 ng/mL
COc1cc(-c2cc(=O)c3ccc(OCCCn4c(Cl)nc5ccccc54)cc3o2)cc(OC)c1OC | male Sprague-Dawley rat | intravenous | 10 mg/kg | – | 220 ng/mL
COC1C(c2ccc(Cl)c(Cc3ccc(OC4CCOC4)cc3)c2)OC(CO)C(O)C1O (stereo not drawn) | Sprague-Dawley rat | intravenous | 2.5 mg/kg | – | 3030 ng/mL
CNc1cc(C)c(C(N)=O)cn1 | male Wistar rat | oral | 30 mg/kg | – | ~100000 nM
CCC(CC)n1c(Cc2cccs2)nc2cc(C(=O)N[C@@H](CC(=O)O)c3ccccc3)ccc21 | Sprague-Dawley rat | intravenous | 1 mg/kg | – | 1160 ng/mL
C/C(N)=N/C(=N\S(=O)(=O)c1ccc(C(F)(F)F)cc1)N1C[C@H](c2ccccc2)C(c2ccc(Cl)cc2)=N1 | male Sprague-Dawley rat | oral | 3 mg/kg | – | 321 ng/mL
Cc1cc2c(cc1O)C=C1C=CC(=O)C(C)(C)[C@H]1CC2 | male Sprague-Dawley rat | intravenous | 2 mg/kg | – | 1140 ng/mL
CNC(=O)C1CCCN(C(=O)C2CC3CCC2N3C(=O)[C@@H]2C[C@@H](O)CN2C(=O)NCc2cccc(Cl)c2F)C1 (mixture of isomers) | rat | oral | 8 mg/kg | – | 1.49 ng/mL
CC(C)C[C@H](NC(=O)[C@H](CCCN)NC(=O)CNC(=O)[C@@H](NC(=O)[C@H](C)NC(=O)[C@@H]1CSCSC[C@H](NC(=O)CC[C@H](N)C(=O)O)C(=O)N[C@@H](CC(N)=O)C(=O)N[C@@H]([C@@H](C)O)C(=O)N[C@@H](C)C(=O)N[C@@H]([C@@H](C)O)C(=O)N1)[C@@H](C)O)C(=O)N[C@@H](C)C(=O)N[C@@H](CCC(=O)O)C(=O)N[C@@](C)(Cc1ccccc1)C(=O)N[C@@H](CC(C)C)C(=O)N[C@H](C(=O)N[C@@H](CCCNC(=N)N)C(=O)N[C@@H](CO)C(=O)N[C@@H](CO)C(=O)N[C@@H](CC(N)=O)C(=O)N(C)[C@@H](CC(N)=O)C(=O)N[C@@H](Cc1ccccc1)C(=O)NCC(=O)N1CCC[C@H]1C(=O)N[C@@H](CCCCNC(=O)CC[C@H](NC(=O)CC[C@H](NC(=O)CCCCCCCCCCCCCCCCCCC(=O)O)C(=O)O)C(=O)O)C(=O)N[C@@H](CC(C)C)C(=O)N1CCC[C@H]1C(=O)N1CCC[C@H]1C(=O)N[C@H](C(=O)N[C@@H](CCC(=O)O)C(=O)N[C@H](C(=O)NCC(=O)N[C@@H](CO)C(=O)N[C@@H](CC(N)=O)C(=O)N[C@H](C(=O)N[C@@H](Cc1ccc(O)cc1)C(N)=O)[C@@H](C)O)C(C)C)[C@@H](C)O)C(C)C | male Sprague-Dawley rat | subcutaneous | 30 nmol/kg | single dose | 146 nM
COC(=O)C1=CNC=C(C(=O)OC)C1c1ccc(F)c(C(F)(F)F)c1 | male Sprague-Dawley rat | intravenous | 5 mg/kg | – | 1380 ng/mL
O=C(O)c1c(O)cc(O[C@@H]2O[C@H](CO)[C@@H](O)[C@H](O)[C@H]2O)cc1/C=C/c1ccccc1 | male Sprague-Dawley rat | intravenous | 1 mg/kg | – | 6820 ng/mL
CCC(CC)n1c(Cc2ccco2)nc2cc(C(=O)N[C@@H](CC(=O)O)c3ccccc3)ccc21 | Sprague-Dawley rat | intravenous | 1 mg/kg | – | 964 ng/mL
C=C(NC(=O)c1csc(-c2nc3c(cc2O)-c2nc(cs2)C(=O)NC(C(C)O)C(=O)NC(=C(C)OC)c2nc(cs2)C(=O)NC2c4nc(cs4)C(=O)NC(COC(=O)c4c5c6c(cccc6n4O)COC(=O)C(OC4CC(C)(O)C(N(C)C)C(C)O4)C2OC5)c2nc-3cs2)n1)C(N)=O (stereo not drawn) | male Sprague-Dawley rat | intravenous | 18 mg/kg | single dose, infusion | 5880 ng/mL
CCOP(=O)(CC(=O)Nc1ccc(S(=O)(=O)N(CC(N)=O)c2ccc(N(CC(N)=O)S(=O)(=O)c3ccc(OC)cc3)c3ccccc23)cc1)OCC | male Wistar rat | oral | 28 mg/kg | single dose | 217 ng/mL
CC(=Nc1ccc(N)cc1)N(C)C | male Sprague-Dawley rat | oral | 200 mg/kg | – | 8620 ng/mL
O=c1c(-c2ccc(Cl)c(CN3CCOCC3)c2)coc2cc(O)ccc12 | male Sprague-Dawley rat | oral | 10 mg/kg | – | 532 ng/mL
OC1(C(F)(F)F)CCN(c2nc(Nc3ccnc(C(F)(F)F)c3)nc(-c3cccc(C(F)(F)F)n3)n2)C1 (stereo not drawn) | Sprague-Dawley rat | oral | 20 mg/kg | – | 1230 ng/mL
CN1CCC[C@@H]1C(=O)N[C@@H](Cc1ccc(-c2ccccc2)cc1)B(O)O | male Sprague-Dawley rat | oral | 1 mg/kg | – | 505 nM

Repeated from above:
SMILES | species | route | dose | setting | Cmax
CNc1cc(C)c(C(N)=O)cn1 | male Wistar rat | oral | 30 mg/kg | – | ~100000 nM
C=C(NC(=O)c1csc(-c2nc3c(cc2O)-c2nc(cs2)C(=O)NC(C(C)O)C(=O)NC(=C(C)OC)c2nc(cs2)C(=O)NC2c4nc(cs4)C(=O)NC(COC(=O)c4c5c6c(cccc6n4O)COC(=O)C(OC4CC(C)(O)C(N(C)C)C(C)O4)C2OC5)c2nc-3cs2)n1)C(N)=O (stereo not drawn) | male Sprague-Dawley rat | intravenous | 18 mg/kg | single dose, infusion | 5880 ng/mL
